Published values collected from several papers.
Protocols differ between the studies behind these lines. Values joined by “and” are separate records of one study, mostly repeats; a detail may differ. ± marks the error that the study gave.
PDE5A: cGMP-specific 3',5'-cyclic phosphodiesterase (PDE5A, Homo sapiens, UniProt O76074)
FGFR1: Fibroblast growth factor receptor 1 (FGFR1, Homo sapiens, UniProt P11362)
SLC6A4: Sodium-dependent serotonin transporter (SLC6A4, Homo sapiens, UniProt P31645)

Cc1cc(O)c(C=O)c2c1C(=O)Oc1c(CO)c(O)c3c(c1O2)C(O)OC3=O (stereo not shown) has an IC50 of 8.16 µM (PDE5A; enzyme activity, inhibitor, luciferase).
CNC(=O)c1ccc(C)c(NC(=O)c2cnn3ccccc23)c1 has an IC50 of 2 µM (DDR1 (Homo sapiens, UniProt Q08345); cell-free assay).
CC1OC(Oc2c(-c3ccc(O)cc3)oc3cc(O)cc(O)c3c2=O)C(OC(=O)C=Cc2ccc(O)cc2)C(O)C1OC(=O)C=Cc1ccc(O)cc1 (stereo not shown) has an IC50 of greater than 10 µM (CXCR5 (Homo sapiens, UniProt P32302); calcium flux, antagonist; 293FT GCaMP6 transfected).
The IC50 of CCCCCCc1ccc(S(=O)(=O)N2CC2C(N)=O)cc1 (stereo not shown) is reported as 0.033 µM and 0.03 µM (P4HB (Homo sapiens, UniProt P07237); enzyme activity, inhibitor, absorbance; pH 7.6).
Oc1c(C(Nc2nc3ccccc3s2)c2ccccc2OCc2ccccc2)ccc2cccnc12 (stereo not shown) gave an IC50 of 5.15 ± 0.09 µM (Genome polyprotein, NS2B-NS3 protease (GP1, West Nile virus, UniProt Q9Q6P4); enzyme activity, inhibitor; 0.1% CHAPS, added: tetrapeptide substrate).
COc1cc2nccc(Oc3ccc(NC(=S)NCCC#N)c(Cl)c3)c2cc1C(N)=O has an IC50 of 1.93 µM (FGFR1).
For FC(F)(F)c1ccccc1/N=c1\oc2ccccc2cc1-c1ccccc1, the IC50 was 0.0078 µM (PTGS2 (Homo sapiens, UniProt P35354); enzyme activity, inhibitor).
With CNCc1c(OCc2ccc(F)cc2)ccc2ccccc12 the IC50 was 5.03 µM (SLC6A4; transporter uptake, inhibitor, radiometric).
For CCc1[nH]c(C(=O)N[C@@H]2CCN(c3nnc(C(C)(C)O)s3)C[C@@H]2OC)nc1Cl, the IC50 was 0.376 µM (DNA gyrase subunit B (Staphylococcus aureus, UniProt P0A0K8); enzyme activity, inhibitor, ADP detection).
For Cc1ccc(-c2nnc3ccc(N4CCN(C(=O)c5ccc(Br)o5)CC4)nn23)cc1, the IC50 was 4.09 µM (Chrm1 (Rattus norvegicus, UniProt P08482); calcium mobilization, antagonist; CHO expressing rat M1).
C=C(C)c1cc(NNC(=N)N)c(C)cc1NNC(=N)N gave an IC50 of 76.8 µM (Mycosin-1 (Mycolicibacterium thermoresistibile, UniProt G7CDQ2); protease activity, inhibitor, quenched fluorescent peptide; Mycobacterium thermoresistibile).
The IC50 of CN(C)C(=O)c1ccc(CS(=O)(=O)CC(=O)C23CC4CC(CC(C4)C2)C3)o1 is reported as 0.122 µM (HSD11B1 (Homo sapiens, UniProt P28845); enzyme activity in cells, inhibitor).
The IC50 of Clc1ccc(CCn2cc(-c3ccc(N4CCNCC4)cc3)nn2)cc1 is reported as 121 µM (Endothiapepsin (EAPA, Cryphonectria parasitica, UniProt P11838); enzyme activity, inhibitor, fluorescence).
The IC50 of O=C(Nc1ccc(C(F)(F)F)nc1)N1CCC(Cc2cccc(Oc3ccc(C(F)(F)F)cn3)c2)CC1 is reported as 0.56 µM (Faah (Mus musculus, UniProt O08914); enzyme activity, inhibitor, fluorescence; mouse tissue homogenate; 5 min preincubation).
The IC50 of COc1cc(OC)cc(-c2nc(Nc3nc4ccccc4o3)ncc2C#N)c1 is reported as greater than 10 µM (Grm5 (Rattus norvegicus, UniProt P31424); calcium signal, antagonist).
O=C(NCCCN1CCC(Cc2ccccc2)CC1)c1cc2ccccc2[nH]1 gave an IC50 of 0.24 to 0.92 µM (SLC6A4; transporter uptake).
For O=C(O)[C@@H]1Cc2c([nH]c3ccccc23)[C@@H](c2ccc(F)cc2I)N1, the IC50 was 0.14 ± 0.07 µM (MEP cytidylyltransferase IspD (Plasmodium falciparum, UniProt Q8I273); enzyme activity, inhibitor, fluorimetric pyrophosphate; 60 nM enzyme).
Under IC50, CCOC(=O)C(C(=O)OCC)C(c1ccccc1)(c1ccccc1)c1ccccc1 is recorded as “no effect” (Gap junction alpha-8 protein (Gja8, Mus musculus, UniProt P28236); gap junction channel current, inhibitor, dual whole-cell voltage clamp; N2a transfected with Cx50).
COc1cc2nccc(Oc3ccc(NC(=S)NC4CC4)cc3C(F)(F)F)c2cc1C(N)=O gave an IC50 of 4.92 µM (FGFR1).
For O=C(NO)c1ccc(CC(=O)N(CCO)c2ccccc2)cc1, the IC50 was 17 µM (HDAC (Lucilia cuprina egg nuclear extract); enzyme activity, inhibitor, fluorometric).
The IC50 of CC[C@H](C)[C@H](NC(C)=O)C(=O)N[C@H](CC(=O)N[C@H](C(=O)N[C@@H](C)C(=O)N[C@@H](CCC(N)=O)C(=O)N[C@@H](CCC(=O)O)CC(=O)N[C@@H](CC(C)C)C(=O)N[C@@H](CCCNC(=N)N)C(=O)N[C@@H](CCCNC(=N)N)C(=O)N[C@H](CC(=O)NCC(=O)N[C@@H](CC(=O)O)C(=O)N[C@@H](CCC(=O)O)C(=O)N[C@H](CC(=O)N[C@@H](CC(N)=O)C(=O)N[C@@H](C)C(=O)N[C@@H](Cc1ccc(O)cc1)C(=O)N[C@H](CC(N)=O)Cc1ccc(O)cc1)Cc1ccccc1)[C@@H](C)CC)[C@@H](C)CC)Cc1c[nH]c2ccccc12 is reported as 0.029 ± 0.002 µM (BCL2L2 (Homo sapiens, UniProt Q92843); competition SPR; pH 7.4, added: BimBH3 peptide).
The IC50 of O=C(O)c1ccccc1/N=C/c1c(O)ccc2ccccc12 is reported as 3.5 µM (Krev interaction trapped protein 1, FERM domain (KRIT1, Homo sapiens, UniProt O00522); HEG1-KRIT1 FERM interaction, inhibitor, flow cytometry bead).
The IC50 of N=C(N)SCc1ccccc1CSC(=N)N is reported as 0.62 µM (TDO2 (Homo sapiens, UniProt P48775); added: L-tryptophan 2 mM).
For COc1ccc2c3c(c(Cc4ccc(Cl)cc4)[nH]c13)CCN(CCC(=O)O)C2=O, the IC50 was 0.032 µM (PDE5A; enzyme activity, inhibitor).
C[C@@H](O)[C@H](NC(=O)CP(=O)(O)OC[C@H]1O[C@@H](n2cnc3c(N)ncnc32)[C@H](O)[C@@H]1O)C(=O)O has an IC50 of 1.3 ± 0.5 µM (tsaD/tsaC, with TsaB and TsaE (Escherichia coli, UniProt P05852+P45748); inhibitor, HPLC; pH 7.5, 23 °C, preincubation 1 min, added: ATP 1 mM and L-threonine).
For N=C(N)NCCC[C@@H](NC(=O)[C@@H](CCCNC(=N)N)NC(=O)CCCCCNC(=O)[C@@H](CCCCN)NC(=O)CCCCCNC(=O)c1ccc(-c2ccnc(N)n2)s1)C(N)=O, the IC50 was 0.229 µM (cGMP-dependent protein kinase 1, isoform alpha (PRKG1, Homo sapiens, UniProt Q13976); inhibitor, fluorescence anisotropy displacement; added: ARC-1059 probe and cGMP).
For O=[N+]([O-])c1cccc(NC(=S)Nc2ccccc2)c1, the IC50 was 4400 ± 600 µM (Urea transporter 1 (Slc14a1, Rattus norvegicus, UniProt P97689); urea transport, inhibitor; rat erythrocytes; 15 min).
COc1cc2nccc(Oc3ccc(NC(=S)NC4CC4)c(Cl)c3)c2cc1-c1ncco1 gave an IC50 of 2.64 µM (FGFR1).
With CC(C)OP(=O)(C[C@H]1C[C@@](O)(C(=O)O)C[C@@H](O)[C@@H]1O)OC(C)C the IC50 was 930 µM (3-dehydroquinate synthase, chloroplastic (DHQS, Arabidopsis thaliana, UniProt Q8VYV7); enzyme activity, inhibitor, malachite green phosphate release; 29 °C).
For CC/C(=C\c1ccc(OCC(=O)NC(C(=O)N2CCOCC2)c2ccccc2)cc1)[N+](=O)[O-] (stereo not shown), the IC50 was 11.7 µM (Papain (Carica papaya, UniProt P00784); enzyme activity, inhibitor, fluorescence; pH 5.5).
With COc1ccc(C(C=CCN2CCCC2C(O)C(=O)O)(c2ccc(OC)cc2)c2ccc(OC)cc2)cc1 (stereo not shown) the IC50 was 140 µM (SLC6A11 (Homo sapiens, UniProt P48066); [3H]GABA uptake, inhibitor; HEK293T; 120 min preincubation).

A few entries again:
C=C(C)c1cc(NNC(=N)N)c(C)cc1NNC(=N)N gave an IC50 of 76.8 µM (Mycosin-1 (Mycolicibacterium thermoresistibile, UniProt G7CDQ2); protease activity, inhibitor, quenched fluorescent peptide; Mycobacterium thermoresistibile).
The IC50 of CN(C)C(=O)c1ccc(CS(=O)(=O)CC(=O)C23CC4CC(CC(C4)C2)C3)o1 is reported as 0.122 µM (HSD11B1 (Homo sapiens, UniProt P28845); enzyme activity in cells, inhibitor).
The IC50 of Clc1ccc(CCn2cc(-c3ccc(N4CCNCC4)cc3)nn2)cc1 is reported as 121 µM (Endothiapepsin (EAPA, Cryphonectria parasitica, UniProt P11838); enzyme activity, inhibitor, fluorescence).
The IC50 of O=C(Nc1ccc(C(F)(F)F)nc1)N1CCC(Cc2cccc(Oc3ccc(C(F)(F)F)cn3)c2)CC1 is reported as 0.56 µM (Faah (Mus musculus, UniProt O08914); enzyme activity, inhibitor, fluorescence; mouse tissue homogenate; 5 min preincubation).
